Measured values from different studies.
Each numbered part is a random draw from the data of one study; scales do not carry over between parts. Positions count from the first letter of the parent shown.

Block 1
Target: CCNA2, cyclin fold, Cln2 fusion (human)
Method: yeast growth competition, sequencing
Matrix: yeast
Setting: strong parent motif
Baseline: not given
Reading: higher = stronger binding
Starting sequence: PKN2 docking peptide (human); VSAVQKLDFSDTM; partner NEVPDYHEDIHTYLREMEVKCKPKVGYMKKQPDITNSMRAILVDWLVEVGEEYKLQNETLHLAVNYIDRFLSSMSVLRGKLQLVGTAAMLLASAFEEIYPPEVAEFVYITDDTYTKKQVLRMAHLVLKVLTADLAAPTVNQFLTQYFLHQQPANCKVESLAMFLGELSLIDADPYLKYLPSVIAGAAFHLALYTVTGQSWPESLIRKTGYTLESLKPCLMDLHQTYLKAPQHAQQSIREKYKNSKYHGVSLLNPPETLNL
`VSACQKLDFSDTM [V4C]`: “normalised enrichment score” 2.52.
For `VSAVQQLDFSDTM [K6Q]`, “normalised enrichment score” read 1.29.
For `VSAVQKLDFSDMM [T12M]`, “normalised enrichment score” read 2.51.
For `VSAVQKLFFSDTM [D8F]`, “normalised enrichment score” read 1.06.
For `VSAVQKLDFSDHM [T12H]`, “normalised enrichment score” read 2.22.
For `VSAVQKMDFSDTM [L7M]`, “normalised enrichment score” read -0.56.
For `VSRVQKLDFSDTM [A3R]`, “normalised enrichment score” read 0.762.
For `VSAVQKLDRSDTM [F9R]`, “normalised enrichment score” read 0.195.
`VSAVQKLDPSDTM [F9P]` — result for “normalised enrichment score”: 0.161.
Under “normalised enrichment score”, `VSAVQKLDFSSTM [D11S]` is recorded as 2.3.
Under “normalised enrichment score”, `VSAVQKLVFSDTM [D8V]` is recorded as 1.33.
Under “normalised enrichment score”, `VSEVQKLDFSDTM [A3E]` is recorded as -0.532.
Under “normalised enrichment score”, `VSAMQKLDFSDTM [V4M]` is recorded as 1.38.
Under “normalised enrichment score”, `VSAVQKLMFSDTM [D8M]` is recorded as 1.11.
`VSAVQKLAFSDTM [D8A]` — result for “normalised enrichment score”: 0.581.
Under “normalised enrichment score”, `VSPVQKLDFSDTM [A3P]` is recorded as 1.44.

Block 2
Target: Ras GTPase-activating protein-binding protein 1, C-terminal RGG region (G3BP1, Homo sapiens, UniProt Q13283)
UniProt Q13283, sequence (whole entry, looked up): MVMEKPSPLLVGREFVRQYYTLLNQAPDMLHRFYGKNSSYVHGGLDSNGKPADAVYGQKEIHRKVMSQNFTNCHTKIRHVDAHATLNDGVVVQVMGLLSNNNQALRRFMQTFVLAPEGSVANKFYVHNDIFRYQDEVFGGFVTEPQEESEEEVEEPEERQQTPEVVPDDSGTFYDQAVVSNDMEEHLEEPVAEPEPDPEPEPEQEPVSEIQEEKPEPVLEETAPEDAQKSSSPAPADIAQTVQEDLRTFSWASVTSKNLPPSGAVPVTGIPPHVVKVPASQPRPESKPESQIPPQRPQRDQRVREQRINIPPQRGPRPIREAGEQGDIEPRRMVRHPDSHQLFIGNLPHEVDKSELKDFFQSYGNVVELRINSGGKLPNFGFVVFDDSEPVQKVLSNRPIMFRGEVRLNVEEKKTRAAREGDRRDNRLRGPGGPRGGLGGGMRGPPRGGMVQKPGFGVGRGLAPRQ
Method: RNA Bind-n-Seq
Form: RNA
Matrix: in vitro
Concentration: 1 µM
Setting: whole 134-nt RNA, ends assumed
With: 150 mM KCl
Baseline: input library
Reading: higher = stronger binding
All sequences stand within: GGGAGUUCUACAGUCCGACGAUC … UGGAAUUCUCGGGUGUCAAGG
The log2 enrichment of `CUGUGCUACACAUCGUAUGUACCGAAUCGGGGUUUUUUUGGGGAAAAAAAGGGGAAAGGGGAAAGUAUUAUGUUACGCCGUUCGGAUCUG` is reported as -0.334.
For `GAAACUACCCGUGUGUAAAAAGAAGAUUGGCUUAAAAUGGCUACUGUGAUGGGAACAGUGUCUUAGGGAGAUGCAGCUUGGACUUGAGGU`, the log2 enrichment was 0.0638.
For `CAAGUCCUGUGCUACACAUCGUAUGUACCGAAUCGGGGUUUGGUUUGGUUUGGGGAAAGUAUUAUGUUACGCCGUUCGGAUCUGCACUUC`, the log2 enrichment was -0.905.
With `CCUGUGCUACACAUCGUAUGUACCGAAUCGGGUUUUUUUGGUUUUUUUGGGGUUUUUUUGGAAAGUAUUAUGUUACGCCGUUCGGAUCUG` the log2 enrichment was -1.6.
`AAGUCCUGUGCUACACAUCGUAUGUACCGAAUCGGUUUGGGGUUUGGGGUUUGGGGAAAGUAUUAUGUUACGCCGUUCGGAUCUGCACUU` has a log2 enrichment of -0.473.
The log2 enrichment of `GCAGGAAGUAAAAACAAAUGGAAAUGCUUCGGAUAGUGGCAGGGGUGGGGGUUGCUCAGGAAAGGGUGGGAUGGGAGUGGGUAAAGAGUU` is reported as 1.49.
`CAAGUCCUGUGCUACACAUCGUAUGUACCGAAUCGGGUGGGAAAAAGGGUUUGGGAAAGUAUUAUGUUACGCCGUUCGGAUCUGCACUUC` has a log2 enrichment of 1.67.
`ACCAUGCAGGUGGGCAUCUUUGGGAAGUGGGGCAAGCGGGGGAUAGGGAGGGGGGUAACACUUUGGGAACAGGUGGUCCCAGGUCGUUUC` gave a log2 enrichment of -0.699.
For `AGUCCUGUGCUACACAUCGUAUGUACCGAAUCGGGGUUUUUGGGUUUUUGGUUUUUGGAAAGUAUUAUGUUACGCCGUUCGGAUCUGCAC`, the log2 enrichment was -1.68.

Block 3
Target: RNA binding protein fox-1 homolog 2, RRM domain, GST-SBP tag (RBFOX2, Homo sapiens, UniProt O43251-10, residues 100-194)
Method: RNA Bind-n-Seq
Form: RNA
Matrix: in vitro
Concentration: 365 nM
Setting: natural RNA segment, single round, ends assumed
Baseline: no-protein control
Reading: higher = stronger binding
All sequences stand within: GGGAGUUCUACAGUCCGACGAUC … UGGAAUUCUCGGGUGCCAA
Residues (chain): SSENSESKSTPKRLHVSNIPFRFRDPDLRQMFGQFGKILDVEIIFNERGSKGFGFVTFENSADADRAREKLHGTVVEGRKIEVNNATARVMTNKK
For `CAGUGCUGCUCACGAGAGCCCAGCCAGUCUCAUGCCUGCAUUGCUGACUUGAACUCACAGUCGCCAAGUCUACCUAUCUUUCUUGGAAGCAGUCUUUCAAAAUUCCUACU`, “RBNS enrichment (R)” read 0.316.
Under “RBNS enrichment (R)”, `CUACAAGCCACCUCAGUUAACUUUGGUUCCCCGUGGACUCCCAGGCUGGAGGAGGAAAGCGUGAGGACGGGGAUGAUUUUGAUCACGAUUCCAUUUAUUGCCUUUACAUA` is recorded as 1.39.
Under “RBNS enrichment (R)”, `GACUGUCUGAGACAGUUUGCACAUAGAAAAAGCAUCUGAGCCACUGGAGGGAAGGAUUUGGCAAAGGUGCAUGUGUUUGGGCAGGAAAAGGCCAAGUGAAAUCUAUGCCC` is recorded as 2.82.
`AGAUGUGGUCGGGGCCACGCUUCCCACUGGUUCUGCAGUGAGGAGUUGGGGCGGGUGAGCCAAAGCGGCCCCCCAUGGUGUCUACCUGAGGGGCAGGGAACCGCCUGCCU` — result for “RBNS enrichment (R)”: 0.195.
`UGAUAUAAAGUUAGGAUUUGGGAAACGUGUAGUUAACAACUUGGAAACAUGAAGAUAUUAAAAUGGCAGCUGGCUAACUGUCUCUUAAGCCACUAUGCAAUUUCUACCAA`: “RBNS enrichment (R)” 0.536.
For `GAUAGCCUGGGUGUUGAUAUUCACUUUACCCGCACUCAGACACAGGCGACCUUGAAGCAGUUCUCGGUGUGUAGAGUCCACGUGACAGUCCCCACAGCCUCCCCAGAUAG`, “RBNS enrichment (R)” read 0.263.
For `GUGAUGGCCCUGGAGGCGGGGCUGAGGAACAGGGAAAUGCCGCUGUGAAGUCUUAAAGCACUUCUGCUUAAACUCCCAUGUGUGAGGAGUGUGCCUCCCUGUGCCCUCUC`, “RBNS enrichment (R)” read 0.631.
For `UGAUGUGUAUAAAAUAUGCAAACAUUUCACAAAUGUUCUUUGUCAUUUCAAAAUACUUUAGUAUAUCAAUAUCAGUAGAUACCAGUGGGUGGGAAAGGGUCAUUACAUGA`, “RBNS enrichment (R)” read 0.388.

Block 4
Target: Histone acetyltransferase KAT6A, winged helix 2, GST fusion (KAT6A, Homo sapiens, UniProt Q92794, residues 85-181)
Method: protein binding microarray
Form: double-stranded DNA, one strand shown
Matrix: in vitro
Concentration: not given
Setting: 8-mer, flanks averaged, mean of 2 arrays, mostly near background
Baseline: not given
Reading: higher = stronger binding
Construct (chain): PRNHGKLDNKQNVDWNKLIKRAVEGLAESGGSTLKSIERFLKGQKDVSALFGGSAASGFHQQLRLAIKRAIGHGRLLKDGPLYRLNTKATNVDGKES
For `AACCCAAC`, the E-score was -0.143.
`AACTGCCC` has an E-score of 0.0843.
With `CCGCCGTA` the E-score was 0.0778.
With `TGTACCAA` the E-score was -0.0463.
The E-score of `GGACTCAC` is reported as -0.17.
`CAAATATG` has an E-score of -0.161.
With `ATCAGAAC` the E-score was 0.133.
`ATTATAGC` gave an E-score of -0.0799.
For `GCCCCGCA`, the E-score was 0.185.
For `CGATTTCA`, the E-score was -0.00873.
The E-score of `ATCATGAA` is reported as -0.0885.
With `CGGATACC` the E-score was 0.0133.
The E-score of `GCTCTACA` is reported as 0.0592.
`GGCGGCCA` has an E-score of 0.0267.
`CATGCGAG` gave an E-score of -0.252.
With `AAATGGGA` the E-score was -0.0911.
The E-score of `CCGTCCAA` is reported as 0.0198.
`CAGCCCAG` gave an E-score of 0.0823.
With `GGTACGTA` the E-score was -0.248.
The E-score of `TGGTAGAA` is reported as -0.0312.
The E-score of `GTCATTGA` is reported as -0.111.
`CTCCTGTA` gave an E-score of -0.0886.
For `GCCGCGCC`, the E-score was 0.243.
For `AACCAGAT`, the E-score was 0.0174.
`AGAGCTTG` gave an E-score of 0.0966.

A few entries again (block 4):
For `CGATTTCA`, the E-score was -0.00873.
The E-score of `ATCATGAA` is reported as -0.0885.
With `CGGATACC` the E-score was 0.0133.
The E-score of `GCTCTACA` is reported as 0.0592.
`GGCGGCCA` has an E-score of 0.0267.
`CATGCGAG` gave an E-score of -0.252.
With `AAATGGGA` the E-score was -0.0911.
The E-score of `CCGTCCAA` is reported as 0.0198.
`CAGCCCAG` gave an E-score of 0.0823.
With `GGTACGTA` the E-score was -0.248.
